Measured values collected from several papers.
A part holds a random share of what one study measured. Substitutions count along the parent as printed.

Series 1
Target: RING finger protein unkempt homolog, zinc fingers 1-6, GST-SBP tag (UNK, Homo sapiens, UniProt Q9C0B0, residues 30-357)
Method: RNA Bind-n-Seq
Molecule type: RNA
Matrix: in vitro
Tested at: not given
Notes: RNA with constant flanks, ends assumed
Baseline: input RNA pool
Reading: higher = stronger binding
Shared flanks, not repeated: GGGAGUUCUACAGUCCGACGAUC … CAACAGAGGAUUGAGCAUCA
Residues (chain): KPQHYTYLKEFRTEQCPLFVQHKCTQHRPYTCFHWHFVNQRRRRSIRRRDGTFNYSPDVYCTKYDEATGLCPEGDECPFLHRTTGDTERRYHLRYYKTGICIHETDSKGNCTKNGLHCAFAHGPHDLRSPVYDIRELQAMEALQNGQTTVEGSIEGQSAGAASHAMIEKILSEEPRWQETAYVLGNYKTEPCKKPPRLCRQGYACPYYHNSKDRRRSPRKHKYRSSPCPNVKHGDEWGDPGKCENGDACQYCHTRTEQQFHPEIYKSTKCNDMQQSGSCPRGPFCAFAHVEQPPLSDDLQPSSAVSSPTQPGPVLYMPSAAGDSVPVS
Oligonucleotide	bound/input enrichment [ratio]
GGGGUGGACCUCUUUCUUAAUGUCCAGUGUCCUAUGUCAUAAGAUUCGGUGCAAUAAGUAUUCCGACCAGCAAUAAAUACUCAGCUUGGAGAUCAUCAUGAUCUUUGUGGGUAGCAUAUC	0.0899
AUGGGUGGAUUAUUUUCUCGAUGGAGGACAAAACCUUCAACUGUAGAAGUUCUAGAAAGUACCGAUAAGGAAAUUCAAGCAUUGGAAGAAUUUAGGGAAAAAAAUCAGAGAUUACAAAAA	0.548
AAGCAUGAACGCAUUGAAAACGAUGUUGCCACCAUCCUGUCUCGCCGUAUUGCUGUUGAAUACCGUGAUUCGGAAGAUGAUUCAGAAUUUGAUGAAGUAGAUUGGUUGGAGUAAGAAAAA	0.25
CACUGGGUCUACUAUCUGUAAAAAAUAUACAUAUAAAUAUAUAUAUACUGUUUGUUUAAAACCGAGUAUUUUUAUUUCAUUCCUUAACUCAUCAUCACAGCAGUGGUAUUGCACUUCAGA	0.632
UUUGGAUCUCGCUUACAAGAAACCUUUUCGUUGGACCUUCUCAAAACUGCAUUUAUCAACCGCUGCUACAUCAAAAGCGAAGAGGCGAAACGUCAGAGCCUUGGCAUAGAGAAAGAAGCU	0.644
AAAAAAAGAAUAAAAAUCAGCCAUUUUCAACAAUUUAUAUUAUUUUUAAAAAUAAAUUUCACCCGUGCAUGGUUUUACAAUGGGAGAGAAUGCAACAGGGUGGUACAAAGACACACCGUG	2.17
AAGUUUGUACCCCUGUCCUUCCCUUUACGCCACUAGUGUGUAGGCAGAUGUCUGAGUCCCCCGGUGGUUUCUAGGAUUGAUAGCAAUUAGCUUUGAUGAACCCAUCCCAGGAAAAAUAAA	0.633
CCUCACCAAAAGGUUUCGGGAACUGGAGGAAGUAUUAAUGUACAACUCACCACUUCAUGCCACCGGAGGCUGAAGUUGACGUUGCCUUUUAAGCCUUUUACAUACACUGGUCAGUUCGGA	0.262
GAAGGUUUUUCAGAAUCCAAGAAAAGGUCAUCAGAAGAUGAAAAUGAAAAUAAAACCGAGUUCCGGAAGAAAGGAGGAUUUGAAGGGGGAGGAUUCCUUGGAAGAAAGAAAGUUCCCUAU	0.208
CCUGAUACUUUGGAUCCAGCACUGAUGAGGCCAGGGAGAUUGGAUAGAAAAAUUGAAUUCCGCUUGCCCGAUCUAGAGGGUCGGACCCACAUAUUUAAGAUUCACGCUCGUUCAAUGAGU	0.317
GAGUCAGCAUAUUUGAGAGGGCAGCGUUUUGCCAGUACCUAUCUUCUUUCUACAGAAGACCGCUUUUUAAGAAAUAAGAGUUCCACAUUGAGUGGCUGUCAGACACAGAUUUCACUGUGA	0.279

Series 2
Target: Fragile X messenger ribonucleoprotein 1, C-terminal low-complexity region (Fmr1, Mus musculus, UniProt P35922)
Method: RNA Bind-n-Seq
Molecule type: RNA
Matrix: in vitro
Tested at: 200 nM
Notes: whole 134-nt RNA, ends assumed
Added: 150 mM LiCl
Baseline: input library
Reading: higher = stronger binding
Each molecule: 7-deaza-guanosine replaces G
Shared flanks, not repeated: GGGAGUUCUACAGUCCGACGAUC … UGGAAUUCUCGGGUGUCAAGG
Oligonucleotide	log2 enrichment
AGUCCUGUGCUACACAUCGUAUGUACCGAAUCGGCCCCCGGCCCCCGGCCCCCGGGGAAAGUAUUAUGUUACGCCGUUCGGAUCUGCACU	-0.28
UAAUUAUGUUUUAUUUUCUUUAAUUGCAGGACUUCAUAGACCUCACGUUGUCGAAGACUCAACGAAAGACUCCAACCGUUAUUCAUAAAC	-0.0709
GUCCUGUGCUACACAUCGUAUGUACCGAAUCGGGGUGGGGAAAAAAAGGGGAAAGGGGAAAGUAUUAUGUUACGCCGUUCGGAUCUGCAC	0.844
AGUCCUGUGCUACACAUCGUAUGUACCGAAUCGGGAAAAAAAGGGUUUUUGGGUGGGAAAGUAUUAUGUUACGCCGUUCGGAUCUGCACU	-2.2
AGUCCUGUGCUACACAUCGUAUGUACCGAAUCGGGGAGGGGUUUUUUUGGGGAGGGGAAAGUAUUAUGUUACGCCGUUCGGAUCUGCACU	0.205
CUUUGUAAUGGGAACUGCCUCUUUCCUGUUGUUGUUAAUGAAAAUGUCAGAAACCAGUUAUGUGAAUGAUCUCUCUGAAUCCUAAGGGCU	-0.856
AGUCCUGUGCUACACAUCGUAUGUACCGAAUCGGUUUUUGGGUUUUUGGGGUUUUUGGAAAGUAUUAUGUUACGCCGUUCGGAUCUGCAC	-1.09
CCUGUGCUACACAUCGUAUGUACCGAAUCGGGUUUUUUUGGGAAAAAAAGGGAAAAAGGGAAAGUAUUAUGUUACGCCGUUCGGAUCUGC	-2.46
UCAUGUAUAGACAACGCCAUUAUUGACGAGAUCACUCCCAAGCGGAUUGGAGAUUGUCCCAAUAUUUAGACCUAUAGCAAGGCCUUGGGA	-0.231
AGUCCUGUGCUACACAUCGUAUGUACCGAAUCAAAUUUUUAAAUUUUUAAAUUUAAAAAAGUAUUAUGUUACGCCGUUCGGAUCUGCACU	-3.33
UCCUGUGCUACACAUCGUAUGUACCGAAUCGGGUUUUUUGGGGUUUUUUGGUUUUUUGGAAAGUAUUAUGUUACGCCGUUCGGAUCUGCA	-0.077

Series 3
Target: ABI1, truncated, D143A, DHFR fusion (Arabidopsis thaliana)
Method: DHFR PCA, deep sequencing
Matrix: yeast
Notes: methotrexate growth selection, single substitutions
Added: (+)-ABA 58 µM
Baseline: wild-type fitted maximum
Reading: higher = stronger binding
Parent: PYL1, truncated, DHFR fusion (Arabidopsis thaliana); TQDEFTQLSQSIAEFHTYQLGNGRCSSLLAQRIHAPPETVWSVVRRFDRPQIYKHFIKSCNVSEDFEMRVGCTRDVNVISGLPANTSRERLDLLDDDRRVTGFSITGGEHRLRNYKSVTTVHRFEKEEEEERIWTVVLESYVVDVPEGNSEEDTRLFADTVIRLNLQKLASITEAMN
Change	relative binding score [%]
I12K	53.4
V100G	8.03
F15C	56.4
V118S	41.1
G108L	-6.31
H110V	-0.857
E4D	86.4
I172Q	54.3
R163V	33.4
F157K	3.1
T101V	82.1
I79M	73.1
A170P	0.949
S171F	69.5
M68K	50.3
R24E	85.5
R90M	66.9

Series 4
Target: Histone acetyltransferase KAT6A, winged helix 1, GST fusion (KAT6A, Homo sapiens, UniProt Q92794, residues 1-85)
Method: protein binding microarray
Molecule type: double-stranded DNA, one strand shown
Matrix: in vitro
Tested at: not given
Notes: 8-mer, flanks averaged, mean of 2 arrays, mostly near background
Baseline: not given
Reading: higher = stronger binding
Target sequence (chain): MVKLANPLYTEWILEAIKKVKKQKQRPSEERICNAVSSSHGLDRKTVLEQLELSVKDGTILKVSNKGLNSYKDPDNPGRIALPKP
Oligonucleotide	E-score
GTGGGCAA	-0.203
GGCGTACA	0.147
AAATAATG	-0.181
CTATGCTA	-0.0817
AACCGTGC	0.0555
ATCGATCG	-0.0605
CGGGCTAA	0.27
GTGATAAA	6.5e-05
ACTCGAGT	-0.237
AGGAGTTG	-0.122
CCTTCACC	0.104
CCCGCGTA	0.343
GGACTCAA	-0.105
CCTGCAAC	-0.152
CACTCAGA	-0.0532
AACTCCAG	-0.0662
GACAGTCA	0.00042
CCTTGGCG	0.0986
ACGGTCAT	0.0649
CAATCTAA	-0.0626
TAAGTACA	-0.0952
GCACGAAA	-0.0716
ACGCTCTG	0.0666
AGATTTAA	-0.052
GTAGTCGA	-0.125

Series 5
Target: PABPC1L2, full length, GST fusion (mouse, UniProt A0ABA7IW68)
Method: RNAcompete
Molecule type: RNA
Matrix: in vitro
Tested at: 20 nM
Notes: 7-mer, probes averaged, single round
Baseline: mean of 7-mers
Reading: higher = stronger binding
Target sequence (chain): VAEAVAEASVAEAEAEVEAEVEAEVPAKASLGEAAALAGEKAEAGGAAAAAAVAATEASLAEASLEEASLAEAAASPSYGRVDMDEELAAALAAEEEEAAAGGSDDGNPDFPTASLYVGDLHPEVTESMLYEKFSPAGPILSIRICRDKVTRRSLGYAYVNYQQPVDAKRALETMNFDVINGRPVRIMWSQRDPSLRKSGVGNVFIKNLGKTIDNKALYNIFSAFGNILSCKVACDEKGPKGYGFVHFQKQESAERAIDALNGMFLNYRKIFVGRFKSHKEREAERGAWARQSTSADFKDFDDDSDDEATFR
Oligonucleotide	7-mer Z-score
UCCCGGC	-0.374
GGCGGCG	0.309
AUAGGUG	-0.0319
UUUAUUU	-0.226
ACCCCAU	-0.251
CCAGAUU	-0.278
GGCAAAA	4.7
UGCUCGC	-0.287
UGAUUGU	-0.262
UCUGGAG	-0.112
AUGAUCU	-0.211
GACUGAA	0.0352
CCGUAAU	-0.22
CGAUAGC	-0.213
CGUCACC	-0.28
CUUUCCG	-0.478
AGGGACC	0.151
AGGACGA	0.209
CAUUGUU	-0.427
AGUCAUC	-0.378
AUCCCAU	-0.351
AACAUUG	0.437
UUAUACU	-0.376
GUCCGGG	-0.0047
UCCAAAU	-0.0101
